Measurements gathered from unrelated publications.
A part holds a random share of what one study measured.

Series 1
Target: Sal-like protein 4, full length isoform B (SALL4, Homo sapiens, UniProt Q9UJQ4-2, residues 1-616)
Method: universal PBM
Form: double-stranded DNA, one strand shown
Sample: in vitro
Concentration: not given
Notes: 8-mer, flanks averaged, mean of replicates
Direction: higher = stronger binding
Measurement: E-score
Oligonucleotide = CCATCACC; result = -0.0813
Oligonucleotide = AAGTGTAG; result = 0.109
Oligonucleotide = CAAAGGTA; result = 0.0548
Oligonucleotide = TCCACCAA; result = -0.07
Oligonucleotide = ACACCACT; result = 0.0644
Oligonucleotide = AGGTTTCG; result = -0.177
Oligonucleotide = ATACGAAA; result = 0.202
Oligonucleotide = GACATTCA; result = 0.112

Series 2
Target: Interferon regulatory factor 5, full length, phosphomimetic (IRF5, Homo sapiens, UniProt Q13568-2, residues 1-514, K96S/S451D/S453D/S456D/S462D)
Method: protein-binding microarray
Form: double-stranded DNA, one strand shown
Sample: in vitro
Concentration: 250 nM
Notes: 60-bp whole probe
Added: salmon DNA 0.4 mg/ml
Reference: random background probes
Direction: higher = stronger binding
Measurement: log fluorescence
All sequences stand within: GCCTAGCAC … GTCTTGATTCGCTTGACGCTGCTG
Oligonucleotide = TTAGATATCAGACTGGAATAGTGCTAG; result = 0.124 z-score
Oligonucleotide = GACGAAGTGGGGACTGGAGACGTGCTA; result = -0.811 z-score
Oligonucleotide = GACGGTTTCGACACTGGGGTCGTGCTA; result = 4.77 z-score
Oligonucleotide = TCAAAAATCTTTGTTGGAACTGTGCTA; result = 0.336 z-score
Oligonucleotide = GACGAACTGGGGTTTCGACACGTGCTA; result = 1.53 z-score
Oligonucleotide = GTAGATTTCGGGTTTCGATTAGTGCTA; result = 8.36 z-score
Oligonucleotide = GACGGTTTCCTCCTGCTGACGTGCTAG; result = 0.32 z-score
Oligonucleotide = TTAGGTTTCATTTTCCTTTAGTGCTAG; result = 4.01 z-score

Series 3
Target: RNA binding protein fox-1 homolog 2, RRM domain, GST-SBP tag (RBFOX2, Homo sapiens, UniProt O43251-10, residues 100-194)
Method: RNA Bind-n-Seq
Form: RNA
Sample: in vitro
Concentration: 365 nM
Notes: natural RNA segment, single round, ends assumed
Reference: no-protein control
Direction: higher = stronger binding
Measurement: RBNS enrichment (R)
All sequences stand within: GGGAGUUCUACAGUCCGACGAUC … UGGAAUUCUCGGGUGCCAA
Residues (chain): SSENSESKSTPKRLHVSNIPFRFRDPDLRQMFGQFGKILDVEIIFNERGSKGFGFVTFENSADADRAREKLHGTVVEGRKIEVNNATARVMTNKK
Oligonucleotide = AGCAAGCGAACUUAGUGCCACAGGUGUUCAUUUACUCGGGAAAUGGUUUUGCUUUUUGUAUUGUCUAAUCUCUUUAAUGACUUCAUACUGUGUAAGGAAAAUUACUUUUG; result = 0.361
Oligonucleotide = GUUGGUGCAAUAAUUAAAUAGCAAAGGAAAUCUGUAUUGGCAACUAUUAUAAUUCAAUAAUUCUUUUGUUUACUGCCCUUUUCUGUUCAAGAAUUUUCUGGAAAUUACUC; result = 0.681
Oligonucleotide = GGCUGGAUGGAGUUUCUUUUGUAAGGUGCACAACACAUUCUUGACAAAUGUGAGUCUCCUGAUCAAUUUAAAUGUUUGAGAUUGAAUAUCUAAUUAAUAAUUCAAUUUUG; result = 0.423
Oligonucleotide = UUUCAUCUGUGGCUCUUUGCUAAAAAUCCGUAGAUCUGAGCUGCAGGUAAACGGAAGGGGCGUCGUUGUCUUUAAGGUGAGGCGGCCAAGCACUGCUCCGUAUAUAAGUU; result = 0.303
Oligonucleotide = UAUCGGAUGCUCAUAACACCCCUGGCCUGGCCCCUUUACUGAGAAGACUCCUUGGAUAUUUCCCAAGAACCCCCCACAUACACCCCUCACAAGCCACCCCUCCUGAGAGG; result = 0.424
Oligonucleotide = GUGAUGGCCCUGGAGGCGGGGCUGAGGAACAGGGAAAUGCCGCUGUGAAGUCUUAAAGCACUUCUGCUUAAACUCCCAUGUGUGAGGAGUGUGCCUCCCUGUGCCCUCUC; result = 0.631
Oligonucleotide = AAGUUAAGUUACUGUUCAAAGUUGAAAAGCAUAUAUGCUACAUUUUCUGCUGAAAGGUGAUUAUAUUUGACAGGUGCUUAGACAUUUGGCUAAGAUAUUUUCCAAUCAGU; result = 0.277
Oligonucleotide = GACCUUUCAAAGCCAUUUUAGGCUGUUAGGGGCAGUGGAGGUAGAAUGACUCCUUGGGUAUUAGAGUUUCAACCAUGAAGUCUCUAACAAUGUAUUUUCUUCACCUCUGC; result = 0.42

Other studies, line by line
SMILES = CCCCc1c(-c2ccc(O)cc2)[nH]c2nccnc12; target = STE20/SPS1-related proline-alanine-rich protein kinase (STK39, Homo sapiens, UniProt Q9UEW8); assay = enzyme activity, inhibitor; conditions = 0.5 µM; scale = reference: control; measurement = remaining activity; result = 76.1%

Repeated from above (series 1):
Oligonucleotide = ACACCACT; result = 0.0644
Oligonucleotide = AGGTTTCG; result = -0.177
Oligonucleotide = ATACGAAA; result = 0.202
Oligonucleotide = GACATTCA; result = 0.112
